Assay results collected from several papers.
Parts stem from different laboratories: compare values within a part only. “And” joins repeats or separate records; there may be more than shown.
UniProt Q15349, sequence (whole entry, looked up): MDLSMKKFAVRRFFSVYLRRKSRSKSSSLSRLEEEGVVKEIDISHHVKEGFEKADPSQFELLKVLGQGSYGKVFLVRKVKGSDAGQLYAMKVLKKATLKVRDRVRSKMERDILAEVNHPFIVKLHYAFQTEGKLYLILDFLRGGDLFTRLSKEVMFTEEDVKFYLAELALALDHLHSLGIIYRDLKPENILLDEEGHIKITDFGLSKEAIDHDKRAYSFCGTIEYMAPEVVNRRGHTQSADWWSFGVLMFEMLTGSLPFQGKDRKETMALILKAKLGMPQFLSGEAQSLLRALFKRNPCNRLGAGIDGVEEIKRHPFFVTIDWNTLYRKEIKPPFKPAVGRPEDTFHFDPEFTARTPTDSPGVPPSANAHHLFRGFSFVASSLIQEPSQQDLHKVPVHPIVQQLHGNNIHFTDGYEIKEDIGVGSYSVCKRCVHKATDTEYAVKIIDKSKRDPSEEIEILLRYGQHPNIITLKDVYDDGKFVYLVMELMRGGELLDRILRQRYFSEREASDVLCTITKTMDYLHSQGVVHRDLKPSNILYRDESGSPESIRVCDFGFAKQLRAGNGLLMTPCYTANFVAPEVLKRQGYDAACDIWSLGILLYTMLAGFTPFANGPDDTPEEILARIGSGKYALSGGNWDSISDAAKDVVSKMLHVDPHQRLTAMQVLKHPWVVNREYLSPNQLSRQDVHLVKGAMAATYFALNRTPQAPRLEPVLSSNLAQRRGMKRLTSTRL
UniProt Q05655, sequence (whole entry, looked up): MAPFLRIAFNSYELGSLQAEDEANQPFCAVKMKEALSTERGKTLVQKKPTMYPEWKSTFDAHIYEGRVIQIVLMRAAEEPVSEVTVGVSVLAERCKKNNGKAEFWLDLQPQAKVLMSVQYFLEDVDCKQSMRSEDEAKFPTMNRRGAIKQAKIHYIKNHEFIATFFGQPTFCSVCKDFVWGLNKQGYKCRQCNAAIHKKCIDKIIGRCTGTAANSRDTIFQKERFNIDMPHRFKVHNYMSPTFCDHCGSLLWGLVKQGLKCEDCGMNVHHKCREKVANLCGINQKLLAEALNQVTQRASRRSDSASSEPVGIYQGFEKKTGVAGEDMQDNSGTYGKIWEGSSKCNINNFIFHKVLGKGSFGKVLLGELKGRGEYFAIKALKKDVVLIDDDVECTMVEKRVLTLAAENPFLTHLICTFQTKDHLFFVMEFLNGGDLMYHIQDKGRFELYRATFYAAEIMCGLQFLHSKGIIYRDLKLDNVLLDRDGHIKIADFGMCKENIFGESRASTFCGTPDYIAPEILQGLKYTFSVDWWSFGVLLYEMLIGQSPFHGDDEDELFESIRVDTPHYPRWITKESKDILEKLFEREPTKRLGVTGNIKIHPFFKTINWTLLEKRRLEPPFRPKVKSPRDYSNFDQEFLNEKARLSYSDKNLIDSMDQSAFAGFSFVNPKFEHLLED
UniProt O76039, sequence (whole entry, looked up): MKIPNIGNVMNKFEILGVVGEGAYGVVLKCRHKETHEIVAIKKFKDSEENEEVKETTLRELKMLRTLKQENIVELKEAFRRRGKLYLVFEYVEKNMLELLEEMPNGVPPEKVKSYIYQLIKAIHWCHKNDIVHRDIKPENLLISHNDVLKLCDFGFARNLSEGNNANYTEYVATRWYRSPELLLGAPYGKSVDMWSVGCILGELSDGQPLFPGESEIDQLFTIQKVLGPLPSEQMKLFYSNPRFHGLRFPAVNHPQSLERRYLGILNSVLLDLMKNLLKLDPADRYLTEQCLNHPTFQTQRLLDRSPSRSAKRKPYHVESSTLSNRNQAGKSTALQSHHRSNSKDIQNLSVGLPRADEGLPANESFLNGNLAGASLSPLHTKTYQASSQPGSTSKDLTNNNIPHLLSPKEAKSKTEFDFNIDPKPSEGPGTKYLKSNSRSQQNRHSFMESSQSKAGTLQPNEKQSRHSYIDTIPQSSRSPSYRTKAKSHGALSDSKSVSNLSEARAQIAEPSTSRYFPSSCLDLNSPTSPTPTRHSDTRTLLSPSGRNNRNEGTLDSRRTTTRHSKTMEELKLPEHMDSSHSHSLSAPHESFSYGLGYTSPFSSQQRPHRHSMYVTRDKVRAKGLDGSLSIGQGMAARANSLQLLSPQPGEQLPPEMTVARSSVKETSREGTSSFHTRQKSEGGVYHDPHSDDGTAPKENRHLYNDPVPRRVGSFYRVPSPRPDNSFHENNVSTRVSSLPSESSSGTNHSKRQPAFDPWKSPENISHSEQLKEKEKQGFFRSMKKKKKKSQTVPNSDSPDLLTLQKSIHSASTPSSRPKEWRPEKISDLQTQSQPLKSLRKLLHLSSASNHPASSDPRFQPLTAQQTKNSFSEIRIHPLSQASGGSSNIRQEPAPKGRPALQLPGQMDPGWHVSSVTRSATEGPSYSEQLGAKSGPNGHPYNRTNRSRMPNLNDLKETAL
UniProt Q13976, sequence (whole entry, looked up): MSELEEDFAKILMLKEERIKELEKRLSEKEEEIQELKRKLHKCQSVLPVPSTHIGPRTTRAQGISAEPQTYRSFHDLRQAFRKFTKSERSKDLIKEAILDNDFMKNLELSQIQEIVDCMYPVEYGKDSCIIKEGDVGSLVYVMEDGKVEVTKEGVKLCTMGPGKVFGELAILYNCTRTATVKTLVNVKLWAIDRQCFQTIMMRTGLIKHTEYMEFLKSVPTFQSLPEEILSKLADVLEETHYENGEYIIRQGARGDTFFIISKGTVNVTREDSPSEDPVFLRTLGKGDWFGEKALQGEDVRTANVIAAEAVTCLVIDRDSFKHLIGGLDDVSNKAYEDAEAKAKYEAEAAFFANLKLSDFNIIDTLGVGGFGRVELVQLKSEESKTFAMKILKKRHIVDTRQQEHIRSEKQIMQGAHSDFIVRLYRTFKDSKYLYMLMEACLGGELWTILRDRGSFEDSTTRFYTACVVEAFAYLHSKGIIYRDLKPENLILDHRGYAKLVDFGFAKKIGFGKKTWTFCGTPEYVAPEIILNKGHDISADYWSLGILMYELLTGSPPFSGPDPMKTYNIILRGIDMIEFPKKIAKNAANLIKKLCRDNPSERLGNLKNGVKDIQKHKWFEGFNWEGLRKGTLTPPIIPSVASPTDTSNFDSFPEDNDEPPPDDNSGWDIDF
UniProt P10721, sequence (whole entry, unmodified, looked up): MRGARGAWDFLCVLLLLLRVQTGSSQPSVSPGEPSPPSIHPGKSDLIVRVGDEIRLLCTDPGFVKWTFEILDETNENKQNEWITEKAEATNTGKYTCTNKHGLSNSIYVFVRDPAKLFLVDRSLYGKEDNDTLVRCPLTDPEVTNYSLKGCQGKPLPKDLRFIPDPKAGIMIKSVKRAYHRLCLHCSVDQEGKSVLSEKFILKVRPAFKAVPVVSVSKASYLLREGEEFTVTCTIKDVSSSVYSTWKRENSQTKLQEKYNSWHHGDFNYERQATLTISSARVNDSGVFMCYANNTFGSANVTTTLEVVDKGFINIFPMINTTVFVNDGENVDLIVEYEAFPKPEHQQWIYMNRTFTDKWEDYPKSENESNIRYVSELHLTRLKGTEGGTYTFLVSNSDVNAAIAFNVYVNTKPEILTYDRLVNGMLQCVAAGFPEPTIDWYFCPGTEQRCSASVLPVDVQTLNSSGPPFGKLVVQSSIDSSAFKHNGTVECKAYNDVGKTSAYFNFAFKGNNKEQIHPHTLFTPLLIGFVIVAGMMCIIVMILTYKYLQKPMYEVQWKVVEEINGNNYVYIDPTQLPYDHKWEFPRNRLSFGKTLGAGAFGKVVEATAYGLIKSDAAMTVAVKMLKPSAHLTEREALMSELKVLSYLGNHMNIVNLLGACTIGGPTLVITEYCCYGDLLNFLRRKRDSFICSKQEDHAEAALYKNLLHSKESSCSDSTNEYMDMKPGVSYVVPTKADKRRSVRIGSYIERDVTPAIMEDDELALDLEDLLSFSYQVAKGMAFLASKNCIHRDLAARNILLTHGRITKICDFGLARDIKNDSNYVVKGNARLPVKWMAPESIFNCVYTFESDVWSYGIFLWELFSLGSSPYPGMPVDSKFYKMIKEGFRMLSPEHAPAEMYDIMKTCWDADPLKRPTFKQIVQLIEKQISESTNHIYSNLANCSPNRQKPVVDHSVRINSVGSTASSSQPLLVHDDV
UniProt Q07002, sequence (whole entry, looked up): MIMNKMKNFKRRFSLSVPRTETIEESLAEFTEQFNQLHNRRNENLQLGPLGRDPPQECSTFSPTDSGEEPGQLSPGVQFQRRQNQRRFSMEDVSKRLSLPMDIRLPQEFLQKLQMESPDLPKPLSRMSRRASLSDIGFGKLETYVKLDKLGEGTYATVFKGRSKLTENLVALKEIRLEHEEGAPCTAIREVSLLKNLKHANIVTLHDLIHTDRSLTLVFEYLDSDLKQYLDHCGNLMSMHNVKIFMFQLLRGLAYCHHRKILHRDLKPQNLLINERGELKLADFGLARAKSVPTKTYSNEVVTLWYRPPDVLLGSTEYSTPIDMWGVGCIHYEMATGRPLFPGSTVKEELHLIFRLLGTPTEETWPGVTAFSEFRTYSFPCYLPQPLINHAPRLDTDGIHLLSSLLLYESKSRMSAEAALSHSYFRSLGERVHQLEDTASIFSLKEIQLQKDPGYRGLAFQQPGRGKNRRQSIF

Series 1
Structure (SMILES): COc1cc(C(=O)OCCCN2CCCN(CCCOC(=O)c3cc(OC)c(OC)c(OC)c3)CC2)cc(OC)c1OC
Method: von Frey, 0.4 g filament
Species: mouse, CFA inflammatory pain
| route | dose | time | notes | paw withdrawal frequency |
| --- | --- | --- | --- | --- |
| subcutaneous | 10 mg/kg | 3 h post-dose | first injection, day 1 | 80% and 70% and 90% and 60% |
| subcutaneous | 10 mg/kg | 1 h post-dose | first injection, day 1 | 60% and 70% and 80% and 90% |
| subcutaneous | 10 mg/kg | 5 h post-dose | third injection, day 5 | 70% and 60% and 80% |
| intravenous | dose not given | 1 h post-dose | first injection, day 1 | 70% and 90% and 80% |
| subcutaneous | 10 mg/kg | 3 h post-dose | second injection, day 3 | 80% and 60% and 70% and 90% |

Series 2
SMILES: Cc1noc([C@H]2C[C@@H](c3ccc(C(F)(F)F)cc3)CN(C(=O)N3CCS(=O)(=O)C3)C2)n1
Method: competition with immobilised ligand
Tested at: 1 µM
| target | effect on | remaining binding [%] |
| --- | --- | --- |
| KIT (Homo sapiens, UniProt P10721, A829P) | cell-free assay | 100 |
| PRKG1 (Homo sapiens, UniProt Q13976) | cell-free assay | 100 |
| EGFR (Homo sapiens, UniProt P00533, del752-759) | cell-free assay | 84 |
| Ribosomal protein S6 kinase alpha-2, C-terminal kinase domain (RPS6KA2, Homo sapiens, UniProt Q15349) | cell-free assay | 92 |
| CDK18 (Homo sapiens, UniProt Q07002) | cell-free assay | 97 |
| NLK (Homo sapiens, UniProt Q9UBE8) | cell-free assay | 70 |
| CDKL5 (Homo sapiens, UniProt O76039) | binding | 100 |
| PRKCD (Homo sapiens, UniProt Q05655) | cell-free assay | 100 |

Series 3
SMILES: CC(C)C(=O)N1CCN(c2nc(OC[C@@H]3CCCN3C)nc3c2CCN(c2cccc4cccc(Cl)c24)C3)C[C@@H]1CC#N
Cell line: HEK293
Method: CellTiter-Glo
Baseline: vehicle
| tested at | viability |
| --- | --- |
| 40 µM | 16% and 12% and 15.4% |
| 2.5 µM | 80.3% and 84.2% and 90.8% |
| 156 nM | 96.9% and 100% and 98.7% |
| 625 nM | 102% and 92.9% and 96.8% |
| 10 µM | 31.7% and 30.5% and 27.3% |

Series 4
Target: Serine/threonine-protein kinase NLK (NLK, Homo sapiens, UniProt Q9UBE8)
Effect on: enzyme activity
Mode: inhibitor
Tested at: 0.5 µM
Baseline: control
Target sequence (Q9UBE8 1-527): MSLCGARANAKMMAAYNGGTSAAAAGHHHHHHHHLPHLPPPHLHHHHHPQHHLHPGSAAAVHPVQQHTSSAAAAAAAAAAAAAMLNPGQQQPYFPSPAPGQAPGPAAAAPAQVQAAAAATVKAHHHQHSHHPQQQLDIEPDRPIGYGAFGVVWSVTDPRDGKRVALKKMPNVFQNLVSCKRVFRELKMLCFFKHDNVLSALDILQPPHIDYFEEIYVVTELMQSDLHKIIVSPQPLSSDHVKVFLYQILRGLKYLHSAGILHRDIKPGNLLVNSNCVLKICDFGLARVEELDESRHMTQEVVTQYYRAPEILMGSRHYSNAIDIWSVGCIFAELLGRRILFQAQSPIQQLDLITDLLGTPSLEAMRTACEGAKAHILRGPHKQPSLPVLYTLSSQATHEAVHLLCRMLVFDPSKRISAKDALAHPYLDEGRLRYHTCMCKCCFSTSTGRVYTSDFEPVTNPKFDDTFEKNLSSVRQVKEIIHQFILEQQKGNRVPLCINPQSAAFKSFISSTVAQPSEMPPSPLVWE
| Compound | remaining activity |
| --- | --- |
| COc1ccc(C(=O)Nc2sc3c(c2C(N)=O)CCCC3)cc1OC | 93.7% |
| OCC(O)CCON=C1C(c2c(O)[nH]c3ccccc23)=Nc2ccccc21 (stereo not shown) | 101% |
| Nc1[nH]nc2nc3ccccc3nc12 | 95.2% |
| COc1cc2nccc(Oc3ccc(NC(=S)NC(=O)c4ccccc4C)cc3)c2cc1OC | 100% |
| COc1ccc(OC)c2c(=S)c3ccccc3[nH]c12 | 98.8% |
| Cc1cccc(-c2[nH]c(C(C)(C)C)nc2-c2ccc3c(c2)OCO3)n1 | 87.9% |
| O=C(Nc1cccc(Nc2cc(Nc3cccc(C(F)(F)F)c3)ncn2)c1)C1CC1 | 95.9% |
| COc1cc2ncnc(Nc3ccc(F)c(Cl)c3)c2cc1OCCCN1CCOCC1 | 91.1% |
| CCOC(=O)c1c(C)[nH]c(/C=C2\C(=O)Nc3ccccc32)c1C | 94.8% |
| CN(C)c1ccc(C=C2C(=O)Nc3ccccc32)cc1 | 102% |
| Oc1ccc(-c2nc(-c3ccncc3)c(-c3ccc(F)cc3)[nH]2)cc1 | 46.1% |
| Nc1ncnc2n[nH]c(Nc3ccc(F)cc3)c12 | 95.4% |
| Cc1ccc(Nc2nccc(N(C)c3ccc4c(C)n(C)nc4c3)n2)cc1S(N)(=O)=O | 69% |
| COc1cc2ncnc(Nc3ccc(Oc4ccccc4)cc3)c2cc1OC | 100% |
| CC(C)[C@H](CO)Nc1nc(Nc2cc(N)cc(Cl)c2)c2ncn(C(C)C)c2n1 | 93.9% |
| CNC(=O)c1cc(Oc2ccc(NC(=O)Nc3ccc(Cl)c(C(F)(F)F)c3)cc2)ccn1 | 99.1% |

Excerpt of the above (series 3):
| tested at | viability |
| --- | --- |
| 2.5 µM | 80.3% and 84.2% and 90.8% |
| 156 nM | 96.9% and 100% and 98.7% |
| 625 nM | 102% and 92.9% and 96.8% |
| 10 µM | 31.7% and 30.5% and 27.3% |
